Measurements pooled from the literature.
Numbered parts are unrelated; each lists some results of a single study. Substitutions count along the parent as printed.

Study 1
Target: OGT, full length, His-tagged (human)
Technique: phage display, sequencing
Medium: in vitro
Concentration: 1 µg OGT
Notes: single substitutions, 15-mer displayed peptide, unchanged parent 6.14
Baseline: input library
Reading: higher = stronger binding
Measurement: fold enrichment
Parent: peptide; VAYPNSYMPKYQIST
P9G: 1.27 fold
P4Q: 3.17 fold
T15Y: 13.9 fold
Y11G: 0.0667 fold
S6T: 8.23 fold
T15N: 1.01 fold
S14G: 2.76 fold
S14A: 4.75 fold
Y7S: 0.634 fold
Y11Q: 1.27 fold
P9K: 0.411 fold
Y3R: 0.419 fold
P9M: 1.96 fold
S14W: 6.92 fold

Study 2
Target: RNA binding protein fox-1 homolog 2, RRM domain, GST-SBP tag (RBFOX2, Homo sapiens, UniProt O43251-10, residues 100-194)
Technique: RNA Bind-n-Seq
Form: RNA
Medium: in vitro
Concentration: 365 nM
Notes: natural RNA segment, single round, ends assumed
Baseline: no-protein control
Reading: higher = stronger binding
Measurement: RBNS enrichment (R)
Residues (chain): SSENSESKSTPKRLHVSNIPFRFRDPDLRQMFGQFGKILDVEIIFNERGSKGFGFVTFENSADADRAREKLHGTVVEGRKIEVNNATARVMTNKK
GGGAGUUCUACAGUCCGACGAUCCAAGCCCAGGCAGACGAGACCUCUGCCCUGAAGACCAACACCAGCCCGUGGGCUGCCCCCUGCCUCCCCACCCUCCCCAUGGCCCACCCAUCUGGGCUGUCUCUGCAGGGUGGAAUUCUCGGGUGCCAA: 0.314
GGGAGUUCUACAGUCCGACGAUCAAAACUCAUUGAUUGGGUUUCUACUUCUUUCAAGGACUCAGGAAAUUUCACUUUGAACUGAGGCCAAGUGAGCUGUUAAGAUAACCCACACUUAAACUAAAGGCUAAGAAUGGAAUUCUCGGGUGCCAA: 0.323
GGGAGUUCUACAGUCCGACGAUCGGCAGCGGGUCUCUGUCCUGGUAUUGAAUUUGCACAAGUGUGUGGUGACAUAUGUGCUUGUGGGCCACAGCUGGAGGAUGGCAAGCUUUCUGUUGUCCUCUGCCUAUGUGUGGAAUUCUCGGGUGCCAA: 0.333
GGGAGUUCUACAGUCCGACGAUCCAUGGGCCAGUGGGACUGGAAGUGACCUGUACAAGUGAUGCAGAAAGGAGGGUUUCAAAGAAAAAGGAUUUUGUUUAAAAUACUUUAAAAAUGUUAUUUCCUGCAUCCCUUGGAAUUCUCGGGUGCCAA: 0.393
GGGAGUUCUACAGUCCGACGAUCCAUUUUCCUACCUAUAUUACACAAAAAAGUAUAGAAAAGAUUUAAGUAAUUUUGCCAUCCUAGGCUUAAAUGCAAUAUUCCUGGUAUUAUUUACAAUGCAGAAUUUUUUGUGGAAUUCUCGGGUGCCAA: 0.505
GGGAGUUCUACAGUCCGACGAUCUGGUGUGGUUGGGUCAAGGCCCCAACACCAUGGCUGCCAGCUUCCAGGCUGGACAAAGCAGGGGGCUACUUCUCCCUUCCCUCGGUUCCAGUCUUCCCUUUAAAAGCCUGUGGAAUUCUCGGGUGCCAA: 0.276

Study 3
Target: CCNE1, cyclin fold, Cln2 fusion (human)
Technique: yeast growth competition, sequencing
Medium: yeast
Notes: strong parent motif
Baseline: not given
Reading: higher = stronger binding
Measurement: normalised enrichment score
Parent: E2F1 docking peptide (human); PPVKRRLDFETDH; partner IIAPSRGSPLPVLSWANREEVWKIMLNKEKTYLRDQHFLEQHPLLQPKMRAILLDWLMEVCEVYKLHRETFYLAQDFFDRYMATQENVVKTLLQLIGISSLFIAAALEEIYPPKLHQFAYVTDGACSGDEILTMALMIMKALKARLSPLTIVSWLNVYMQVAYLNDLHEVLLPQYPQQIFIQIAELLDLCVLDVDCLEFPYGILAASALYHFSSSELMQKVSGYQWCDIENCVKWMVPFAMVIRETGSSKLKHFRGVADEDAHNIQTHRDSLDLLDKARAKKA
PPVKQRLDFETDH [R5Q]: 0.586
PPVKRRLDFETTH [D12T]: 5.96
PPVKRPLDFETDH [R6P]: 0.224
PPVKARLDFETDH [R5A]: 0.374
PPVKRRLDSETDH [F9S]: 0.326
PPVKRCLDFETDH [R6C]: 4.79
PPVKRRLDFEYDH [T11Y]: 6.31
PPVKRRLNFETDH [D8N]: 6.56
PPVKRRLDFEEDH [T11E]: 5.45
PPVKRRLDGETDH [F9G]: -0.0763
PPVKRRLDFEWDH [T11W]: 6.34
PPVKPRLDFETDH [R5P]: 0.167
PPVKRRLDFETYH [D12Y]: 6.63

Study 4
Target: Histone acetyltransferase KAT6A, both winged helices, GST fusion (KAT6A, Homo sapiens, UniProt Q92794, residues 1-181)
Technique: protein binding microarray
Form: double-stranded DNA, one strand shown
Medium: in vitro
Concentration: not given
Notes: 8-mer, flanks averaged, mean of 2 arrays, mostly near background
Baseline: not given
Reading: higher = stronger binding
Measurement: E-score
Residues (chain): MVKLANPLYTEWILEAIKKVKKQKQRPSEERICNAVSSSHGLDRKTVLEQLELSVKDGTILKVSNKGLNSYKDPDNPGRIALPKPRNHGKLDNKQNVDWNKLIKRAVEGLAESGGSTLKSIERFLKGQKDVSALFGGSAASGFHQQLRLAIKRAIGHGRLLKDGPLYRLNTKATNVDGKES
GCAAGATA: 0.0291
ACTCTAGA: -0.192
CAGCGCTC: 0.22
ACACCTCA: -0.0541
CGCCGTGC: 0.273
GGCTAGCA: -0.0936
CGGGTGTA: 0.121
ACATGGCA: -0.0714
GAACTAAC: -0.0763
CCATGCCG: 0.16
GCTGGGCC: -0.0284
GATCGGCC: 0.238
CTTAACAC: 0.00581
CAGAACTA: -0.0512
ATCCTTCG: 0.00611

Study 5
Target: Interferon regulatory factor 7, full length, phosphomimetic (IRF7, Homo sapiens, UniProt Q92985, residues 1-503, S101K/S471D/S472D/S475D/S476D/S477D/S483D/S484D/S487D)
Sequence of UniProt Q92985 (whole entry, unmodified, looked up): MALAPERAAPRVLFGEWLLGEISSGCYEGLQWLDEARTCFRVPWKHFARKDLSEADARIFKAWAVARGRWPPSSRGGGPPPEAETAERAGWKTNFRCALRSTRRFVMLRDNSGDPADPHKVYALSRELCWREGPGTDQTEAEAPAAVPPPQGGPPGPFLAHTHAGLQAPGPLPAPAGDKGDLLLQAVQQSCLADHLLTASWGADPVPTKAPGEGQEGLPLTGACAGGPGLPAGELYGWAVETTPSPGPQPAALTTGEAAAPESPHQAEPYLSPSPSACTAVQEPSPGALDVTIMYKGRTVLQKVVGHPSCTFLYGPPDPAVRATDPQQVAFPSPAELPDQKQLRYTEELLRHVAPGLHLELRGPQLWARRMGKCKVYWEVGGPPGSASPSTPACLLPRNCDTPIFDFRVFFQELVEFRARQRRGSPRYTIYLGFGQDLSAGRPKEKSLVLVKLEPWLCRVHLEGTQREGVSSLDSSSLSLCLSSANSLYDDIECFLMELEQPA
Technique: protein-binding microarray
Form: double-stranded DNA, one strand shown
Medium: in vitro
Concentration: 250 nM
Notes: 60-bp whole probe
With: salmon DNA 0.4 mg/ml
Baseline: random background probes
Reading: higher = stronger binding
Measurement: log fluorescence
Constant ends, left off below: GCCTAGCAC … GTCTTGATTCGCTTGACGCTGCTG
TCATCTTTCTAATTCAAACTGTGCTAG: 1.35 z-score
TTAGGTTACGACTTTCGGTTAGTGCTA: 2.01 z-score
TCACAGCTCCCTTTCTCACTGTGCTAG: -0.185 z-score
TGCTGGTTTTGTGGTCTAATGTGCTAG: -0.267 z-score
TGCCCTCTAACTTCCCAATGGTGCTAG: 0.514 z-score
TTAGGACTGGGTATCGTTTAGTGCTAG: 0.799 z-score
GACGGTCTCGGTCACGGGACGTGCTAG: -0.135 z-score
TTAGGTATCCTTTACCTTTAGTGCTAG: 0.382 z-score
TTAGACCTGGGGTTTCGATTAGTGCTA: 5.53 z-score
TTAGGACTGGGGTATCGGTTTGTGCTA: 2.14 z-score
GACGATATCAGTATCGTGACGTGCTAG: -0.159 z-score
ATTTTTTTCTAATTGAAATGGTGCTAG: 2.34 z-score

Study 6
Target: Fragile X messenger ribonucleoprotein 1, C-terminal low-complexity region (Fmr1, Mus musculus, UniProt P35922)
Technique: RNA Bind-n-Seq
Form: RNA
Medium: in vitro
Concentration: 200 nM
Notes: whole 134-nt RNA, ends assumed
With: 150 mM KCl
Baseline: input library
Reading: higher = stronger binding
Measurement: log2 enrichment
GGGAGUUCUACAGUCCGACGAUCCAAGUCCUGUGCUACACAUCGUAUGUACCGAAUCGGGGUUUGGUUUGGGUUUGGGGAAAGUAUUAUGUUACGCCGUUCGGAUCUGCACUUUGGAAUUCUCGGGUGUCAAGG: 0.177
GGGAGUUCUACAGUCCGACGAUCCUCAAGUCCUGUGCUACACAUCGUAUGUACCGAAUCGGGUUGGGGUUGGUUGGGAAAGUAUUAUGUUACGCCGUUCGGAUCUGCACUUCCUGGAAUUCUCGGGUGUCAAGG: 0.8
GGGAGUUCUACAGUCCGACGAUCACCAUGCAGGUGGAAAUCUUUGGGAAGUGGGGCAAGGGGGGGAUAGGGAGGGGGGUAACACUUUGGGAACAGGUGGUCCCAGGUCGUUUCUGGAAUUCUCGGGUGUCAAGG: 0.879
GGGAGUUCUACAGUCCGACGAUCUAACUUUAGAGGAGGAUCUGAUGGAUAUGGCAGUGGACGUGGAUUUGGGGAUGGCUAUAAUGGGUAUGGAGGAGGACCUGGAGGUGUCAAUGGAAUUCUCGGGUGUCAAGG: 0.094
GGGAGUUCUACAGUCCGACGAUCCCUGUGCUACACAUCGUAUGUACCGAAUCGGGCCCCCCCGGCCCCCCCGGCCCCCCCGGGGAAAGUAUUAUGUUACGCCGUUCGGAUCUGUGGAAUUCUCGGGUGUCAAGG: -0.497
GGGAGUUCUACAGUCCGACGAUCGCAGGAAGUAAAAACAAAUGGAAAAACUUCGGAUAGUGGCAGGGGUGGGGGUUGCUAAGGAAAGGGUGGGAUGGGAGUGGGUAAAGAGUUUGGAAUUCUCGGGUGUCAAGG: -0.0616
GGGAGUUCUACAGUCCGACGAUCCUCAAGUCCUGUGCUACACAUCGUAUGUACCGAAUCGGAAAGGAAAGGAAAGGAAAGUAUUAUGUUACGCCGUUCGGAUCUGCACUUCCAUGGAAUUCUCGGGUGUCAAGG: -0.351
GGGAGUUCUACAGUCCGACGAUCAGUCCUGUGCUACACAUCGUAUGUACCGAAUCGGGAAAGGGAAAAAAAGGGUUUGGGAAAGUAUUAUGUUACGCCGUUCGGAUCUGCACUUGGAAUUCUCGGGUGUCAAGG: 0.0682

Study 7
Target: RING finger protein unkempt homolog, zinc fingers 1-6, GST-SBP tag (UNK, Homo sapiens, UniProt Q9C0B0, residues 30-357)
Technique: RNA Bind-n-Seq
Form: RNA
Medium: in vitro
Concentration: not given
Notes: RNA with constant flanks, human-mouse chimeric sites, ends assumed
Baseline: input RNA pool
Reading: higher = stronger binding
Measurement: bound/input enrichment
Target sequence (chain): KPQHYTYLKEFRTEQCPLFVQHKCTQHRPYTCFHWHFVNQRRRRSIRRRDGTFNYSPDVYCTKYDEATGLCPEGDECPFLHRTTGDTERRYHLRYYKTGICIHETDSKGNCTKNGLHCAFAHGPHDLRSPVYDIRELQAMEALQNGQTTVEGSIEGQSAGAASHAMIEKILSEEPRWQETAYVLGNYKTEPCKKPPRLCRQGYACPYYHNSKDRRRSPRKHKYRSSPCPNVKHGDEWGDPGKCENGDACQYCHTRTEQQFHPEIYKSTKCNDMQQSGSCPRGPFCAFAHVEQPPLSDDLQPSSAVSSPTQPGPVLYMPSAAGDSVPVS
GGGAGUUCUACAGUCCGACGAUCGAUCAUGAACCACCAUCAGAAAUGAAGAUGAGAUUACCCAGACGAGCCCAAAACCGCAGCACUAGAAAAAGUAAACUUAACCUUGCAGAGUUCCUUAAUGAAGAUACAAGUUAAGAGAGCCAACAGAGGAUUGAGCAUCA: 0.813 ratio
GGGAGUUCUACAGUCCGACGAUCCAGCGCCGAGGCCGCGGUUUCCCCCUGGGUGUGCUGAGCAGCAGCCAUGGGCAUCAAAUUUUUAGAAGUUAUCAAACCUUUCUGUGCAGUUCUACCAGAAAUUCAGAAACCGGAAAGGAACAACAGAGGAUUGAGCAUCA: 1.33 ratio
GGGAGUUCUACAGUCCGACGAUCCACACACUCUUCUGCGGGACCCUCAUCUUGCAGGCCCGGGCCUAUGUGGGACCGCACGUCCUGGCAGUGGUGACUCGGACAGGGUUCUGCACGGCAAAAGGGGGCCUGGUGAGCUCCAUCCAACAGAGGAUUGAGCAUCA: 0.117 ratio
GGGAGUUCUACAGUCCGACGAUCCGCUUGGAUGAGGCUGGUGUCACAGAUGAAGUGCUAGAUUCUGCCAUGCAAGCCUUCCUUCUGGAGGUCAUUGUUAAACAUGGGGAGCCAGCCCCUUAUUUAUGUAACAAAGAUCCGUUUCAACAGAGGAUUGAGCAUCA: 0.165 ratio
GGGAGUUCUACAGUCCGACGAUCAAAGUGAUGACUAUGUUUGUCCAACGACAGGUAUUUUCGGAGAGCAAAGAUGAGAUUGCGUUAGUCCUGUUUGGUACAGAUGGCACUGAUAAUGCCCUUGCUGGCAAGGAUCAGUAUCAGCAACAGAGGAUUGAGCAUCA: 0.142 ratio
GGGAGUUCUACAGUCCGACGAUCUUUGUUUUUGUAACUUAUGUAAAAGGUGUUUCUCCCUUACUGUCAAAAAAUAUGCAUGUAUAGUAAUUAGGACUUCAUUCCUCCAUGUUUUCUUCCCUUAUCUUACUGUCAUUGUCCUUACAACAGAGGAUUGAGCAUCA: 1.01 ratio
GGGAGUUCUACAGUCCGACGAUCAGGAGGAGGUUAAAGGGUGAAAAUGGGGUGGAAGACUGUGUCAUGGCUCUGGAGACACUGUUCAGUGUCCUGCUUUCUCUGUGCAGACUGAUGGCCCCUUACACGCCUUUUCUCACUGAGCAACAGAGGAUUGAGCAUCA: 0.0599 ratio

For quick reference, copied from above (study 1):
S6T: 8.23 fold
T15N: 1.01 fold
S14G: 2.76 fold
S14A: 4.75 fold
Y7S: 0.634 fold
Y11Q: 1.27 fold
P9K: 0.411 fold
Y3R: 0.419 fold
P9M: 1.96 fold
